# Experimental data pooled from the literature.
# A part holds a random share of what one study measured. Changes are numbered by the printed parent chain.

# Block 1 — method: RNA Bind-n-Seq; form: RNA; sample: in vitro; tested at: 1 µM; setting: whole 134-nt RNA, ends assumed; with: 150 mM KCl; baseline: input library; reading: higher = stronger binding
# Target: Ras GTPase-activating protein-binding protein 1, RRM domain (G3BP1, Homo sapiens, UniProt Q13283)
# Chain of UniProt Q13283 (whole entry, looked up): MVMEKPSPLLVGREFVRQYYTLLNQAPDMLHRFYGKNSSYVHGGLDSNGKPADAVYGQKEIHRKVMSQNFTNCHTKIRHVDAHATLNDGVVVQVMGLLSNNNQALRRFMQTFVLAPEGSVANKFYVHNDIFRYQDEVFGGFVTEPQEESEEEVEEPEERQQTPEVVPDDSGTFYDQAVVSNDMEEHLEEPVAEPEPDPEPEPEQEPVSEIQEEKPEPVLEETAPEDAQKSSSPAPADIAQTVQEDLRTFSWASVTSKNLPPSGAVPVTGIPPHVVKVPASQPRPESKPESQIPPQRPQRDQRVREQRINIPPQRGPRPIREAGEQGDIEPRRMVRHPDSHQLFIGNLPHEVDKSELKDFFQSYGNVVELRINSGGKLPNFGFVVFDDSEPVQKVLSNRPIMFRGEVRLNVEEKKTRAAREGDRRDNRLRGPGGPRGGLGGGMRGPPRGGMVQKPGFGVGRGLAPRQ
# All sequences stand within: GGGAGUUCUACAGUCCGACGAUC … UGGAAUUCUCGGGUGUCAAGG
Oligonucleotide,log2 enrichment
CAAGUCCUGUGCUACACAUCGUAUGUACCGAAUCGGAAAGGAAAAAAAGGAAAGGAAAGUAUUAUGUUACGCCGUUCGGAUCUGCACUUC,-0.171
UCAAGUCCUGUGCUACACAUCGUAUGUACCGAAUCGGGUUGGGUUGGGUUGGGGAAAGUAUUAUGUUACGCCGUUCGGAUCUGCACUUCC,1.01
CUCAAGUCCUGUGCUACACAUCGUAUGUACCGAAUCGGGGUUGGUUGGUUGGGAAAGUAUUAUGUUACGCCGUUCGGAUCUGCACUUCCA,-0.279
ACCAUGCAGGUGGGCAUCUUUGGGAAGUGGGGCAAGGGGGGGAUAGGGAGGGGGGUAACACUUUGGGAACAGGUAGUCCCAGGUCGUUUC,1.05
UCCUGUGCUACACAUCGUAUGUACCGAAUCGGGGUUUUUUUGGGGAAAAAGGGGUGGGGAAAGUAUUAUGUUACGCCGUUCGGAUCUGCA,0.407
AGUCCUGUGCUACACAUCGUAUGUACCGAAUCGGGUUUUUUUGGGUUUUUGGGAGGGAAAGUAUUAUGUUACGCCGUUCGGAUCUGCACU,0.298
CAAGUCCUGUGCUACACAUCGUAUGUACCGAAUCGGAAAGGGGAAAGGGGAAAGGGAAAGUAUUAUGUUACGCCGUUCGGAUCUGCACUU,0.131
AGUCCUGUGCUACACAUCGUAUGUACCGAAUCGGCCCCGGGGCCCCGGGGCCCCGGGAAAGUAUUAUGUUACGCCGUUCGGAUCUGCACU,-0.836
GGUUUCUGGUGAGCUUCAUGGUUGACGCCCGGGGUGGUUCCAUGAGAGGAAGUCGCCACAACGGCCUGCGAGUGGUGAUCCCGCCACGGA,-0.578

# Block 2 — method: protein binding microarray; form: double-stranded DNA, one strand shown; sample: in vitro; tested at: not given; baseline: not given; reading: higher = stronger binding
# Target: Histone acetyltransferase KAT6A, winged helix 1, GST fusion (KAT6A, Homo sapiens, UniProt Q92794, residues 1-85)
# Setting: 8-mer, flanks averaged, mean of 2 arrays, mostly near background
# Target sequence (chain): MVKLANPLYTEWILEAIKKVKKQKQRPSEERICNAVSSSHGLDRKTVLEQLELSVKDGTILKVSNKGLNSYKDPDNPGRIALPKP
Oligonucleotide,E-score
ATACTCTC,-0.224
ACAGGAGG,-0.232
GGTAGTAC,0.00758
AACTGTCT,-0.101
CCAGGGCA,-0.187
TCATTGCA,-0.236
ATAGTCAC,-0.115
CTATCAAG,-0.147
CATTGAAA,-0.171
AATTCATG,-0.192
CGGGAAGC,0.325
CCCTCGCG,0.331
GATTTTTA,-0.107
GAGCGTGC,0.102
ACTTACAG,-0.213
CTCAACAC,0.0116
CGTTTGTC,0.116
GATTCAGA,-0.22
CGCCGACG,0.45
GAATCTCA,-0.198
CAATAAGA,-0.252
ATGTGGGG,-0.259
ATCTTGGA,-0.296
ATCCTGGG,-0.125
CCAAGCCG,0.212

# Block 3 — method: DHFR PCA, deep sequencing; sample: yeast; with: (+)-ABA 4.8 µM; baseline: wild-type fitted maximum; reading: higher = stronger binding
# Target: ABI1, truncated, D143A, DHFR fusion (Arabidopsis thaliana)
# Setting: methotrexate growth selection, single substitutions
# Starting sequence: PYL1, truncated, DHFR fusion (Arabidopsis thaliana); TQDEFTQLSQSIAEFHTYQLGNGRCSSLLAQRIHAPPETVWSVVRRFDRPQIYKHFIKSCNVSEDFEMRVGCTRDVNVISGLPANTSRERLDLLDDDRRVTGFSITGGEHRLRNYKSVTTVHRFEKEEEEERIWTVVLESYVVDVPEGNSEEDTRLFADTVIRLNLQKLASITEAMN; partner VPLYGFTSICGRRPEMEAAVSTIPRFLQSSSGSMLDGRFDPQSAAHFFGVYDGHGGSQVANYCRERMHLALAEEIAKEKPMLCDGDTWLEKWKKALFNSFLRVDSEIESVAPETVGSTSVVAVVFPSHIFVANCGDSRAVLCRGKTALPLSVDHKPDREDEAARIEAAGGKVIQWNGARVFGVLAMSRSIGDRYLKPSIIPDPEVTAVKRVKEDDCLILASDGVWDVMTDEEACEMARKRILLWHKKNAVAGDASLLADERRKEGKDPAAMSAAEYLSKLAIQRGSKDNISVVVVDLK
Substitution,relative binding score [%]
V121Q,-11.4
V43C,19.5
G71W,-8.98
R132D,104
E130P,95.6
E64G,67.9
V40C,-4.76
V62I,68
A84H,41.9
L93M,63.9
G107V,-0.709
E38K,32.5
C25N,-6.1
V44I,59
E128W,52.1
T154G,-7.63
T39H,53.7
A13R,74.8

# Block 4 — target: CCNB1, cyclin fold, Cln2 fusion (human); method: yeast growth competition, sequencing; sample: yeast; setting: strong parent motif; baseline: not given; reading: higher = stronger binding
# Starting sequence: PKMYT1 docking peptide (human); SFEPRNLLSLFED; partner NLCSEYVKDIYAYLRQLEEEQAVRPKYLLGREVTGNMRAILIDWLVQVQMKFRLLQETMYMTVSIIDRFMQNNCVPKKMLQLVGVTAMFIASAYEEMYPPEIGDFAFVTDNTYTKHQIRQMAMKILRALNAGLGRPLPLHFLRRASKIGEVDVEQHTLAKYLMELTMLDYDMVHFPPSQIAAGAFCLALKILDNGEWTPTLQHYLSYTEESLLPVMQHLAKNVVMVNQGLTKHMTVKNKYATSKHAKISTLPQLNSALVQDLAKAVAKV
Substitution,normalised enrichment score
SFFPRNLLSLFED [E3F],0.718
SFEPRNRLSLFED [L7R],-0.552
SFEPRNVLSLFED [L7V],0.00212
SFEPRNLHSLFED [L8H],0.4
SFEVRNLLSLFED [P4V],0.639
SFWPRNLLSLFED [E3W],0.477
SAEPRNLLSLFED [F2A],0.145
SFEPQNLLSLFED [R5Q],0.875
SFEPRNLLSLFEA [D13A],0.382
SFERRNLLSLFED [P4R],1.11
SFEHRNLLSLFED [P4H],0.0992
SFRPRNLLSLFED [E3R],1.21
SHEPRNLLSLFED [F2H],-0.708
SDEPRNLLSLFED [F2D],0.385
SFEPRNLLSFFED [L10F],0.567
SFEPRNLLSPFED [L10P],-0.527
SFEPENLLSLFED [R5E],0.145

# A few entries again (block 2):
Oligonucleotide,E-score
ATACTCTC,-0.224
GAATCTCA,-0.198
GATTCAGA,-0.22
CATTGAAA,-0.171
ATCCTGGG,-0.125
TCATTGCA,-0.236
GGTAGTAC,0.00758
